Results from different studies.
Parts stem from different laboratories: compare values within a part only. Changes are numbered by the printed parent chain.

Set 1 — target: JUNB, bZIP domain (human); technique: DHFR protein complementation; matrix: yeast; reference: wild-type JUN-FOS pair; direction: higher = stronger binding; quantity: binding fitness
Notes: single substitutions, most at no-binding floor
Starting sequence: JUN, bZIP domain (human); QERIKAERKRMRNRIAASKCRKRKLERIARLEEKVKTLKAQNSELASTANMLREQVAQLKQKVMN; partner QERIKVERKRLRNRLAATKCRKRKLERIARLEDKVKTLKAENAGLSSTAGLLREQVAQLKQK
Change = N42D; value = -1.51 natural log
Change = A49T; value = -0.9 natural log
Change = A49E; value = -1.19 natural log
Change = L31S; value = -1.5 natural log
Change = E33Q; value = -1.21 natural log
Change = S43I; value = -0.943 natural log
Change = T37G; value = -1.35 natural log
Change = A29Q; value = -1.19 natural log
Change = I28E; value = -1.25 natural log
Change = V56A; value = -1.39 natural log
Change = K36E; value = -1.23 natural log
Change = V35Q; value = -1.51 natural log
Change = T37K; value = -0.967 natural log
Change = K34L; value = -0.951 natural log
Change = I28H; value = -1.38 natural log
Change = E33A; value = -1.12 natural log
Change = L52A; value = -1.55 natural log
Change = A40F; value = -1.32 natural log
Change = N42Q; value = -1.14 natural log
Change = S47P; value = -1.49 natural log
Change = A57P; value = -1.55 natural log
Change = E33K; value = -1.17 natural log
Change = V56W; value = -1.43 natural log

Set 2 — technique: protein binding microarray; molecule type: double-stranded DNA, one strand shown; matrix: in vitro; tested at: not given; reference: not given; direction: higher = stronger binding; quantity: E-score
Target: Histone acetyltransferase KAT6A, winged helix 2, GST fusion (KAT6A, Homo sapiens, UniProt Q92794, residues 85-181)
Notes: 8-mer, flanks averaged, mean of 2 arrays, mostly near background
Construct (chain): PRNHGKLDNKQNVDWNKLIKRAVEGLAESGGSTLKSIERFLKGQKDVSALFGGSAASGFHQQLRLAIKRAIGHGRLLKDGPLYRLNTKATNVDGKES
Sequence = CGAGGCCA; value = -0.0417
Sequence = TATGAGGA; value = -0.106
Sequence = GTGGCAAC; value = 0.111
Sequence = CGAGCTAA; value = 0.0327
Sequence = TCGTAAGA; value = -0.0831
Sequence = CAAAATTC; value = 0.187
Sequence = CGGGAATA; value = 0.0701
Sequence = AAGGCGAA; value = -0.0513
Sequence = CCCGAGTA; value = -0.0191
Sequence = CAACATTA; value = -0.159
Sequence = GGTAGTAA; value = -0.0721
Sequence = CCTAGTGC; value = 0.0698
Sequence = ACCTACCG; value = -0.109
Sequence = ACGTCCAC; value = -0.152
Sequence = GACACGGC; value = 0.0355
Sequence = CACATCAC; value = -0.0389
Sequence = GCCTACAA; value = -0.00645
Sequence = CAACCTAG; value = -0.067
Sequence = ACATCAAA; value = 0.0771
Sequence = GAATCCCA; value = 0.0104
Sequence = ACTTGCGA; value = 0.121

Set 3 — technique: RNA Bind-n-Seq; molecule type: RNA; matrix: in vitro; tested at: not given; reference: input RNA pool; direction: higher = stronger binding; quantity: bound/input enrichment
Target: RING finger protein unkempt homolog, zinc fingers 1-6, GST-SBP tag (UNK, Homo sapiens, UniProt Q9C0B0, residues 30-357)
UniProt Q9C0B0, sequence (30-357, looked up): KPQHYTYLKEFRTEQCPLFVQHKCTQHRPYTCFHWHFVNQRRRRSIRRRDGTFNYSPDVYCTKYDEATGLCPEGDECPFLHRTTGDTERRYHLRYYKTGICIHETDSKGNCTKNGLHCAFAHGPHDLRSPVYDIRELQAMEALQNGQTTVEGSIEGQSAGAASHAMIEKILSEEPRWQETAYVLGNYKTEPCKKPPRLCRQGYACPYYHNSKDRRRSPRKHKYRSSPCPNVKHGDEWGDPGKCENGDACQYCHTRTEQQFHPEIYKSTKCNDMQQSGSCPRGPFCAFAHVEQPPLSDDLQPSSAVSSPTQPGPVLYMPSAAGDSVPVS
Notes: RNA with constant flanks, human and mouse sites, ends assumed
Shared flanks, not repeated: GGGAGUUCUACAGUCCGACGAUC … CAACAGAGGAUUGAGCAUCA
Sequence = AAUAUCAAGAACAAGGUGAUGGUCAAUCAAGACAGAGCCAGUCAGCAAAUCAACGCGCUGCGGAGCGAGAUCACGCGCCUUCAGAUGGAGCUCAUGGAAUACAAAACCGGUAAAAGAAUA; value = 0.171 ratio
Sequence = GAAACCUGCAUACCAAUUGUUGCUGGAAUUGUAGCCAGAUUUGGUGCAGUAACUGUGAUAAGUCCACUAGAAUUGAUUAGAACCAAGAUGCAGUCCAAGAAGUUUUCUUACGUGGAACUG; value = 1.91 ratio
Sequence = UUGCUUUUCACAUCCAUUUCCCCUCCUUCCCAUGGGCAGAGGACCAGGCUGUAGGAAAUCUAGUUAUUUACAGGAACUUCAUCAUAAUUUGGAGGGAAGCUCUUGGAGCUGUGAGUUCUC; value = 0.768 ratio
Sequence = UGCUUCCUGGUCCUUAGAGGACUAAAAACAAGACCCUCAUUCCCACUUUCAUUUCCACUCUAGCAAAAACUGGGCUUGCGUUUUUCUCCAACUCCUCGUUUAUAUCCUCCCUUCCAUGUC; value = 0.755 ratio
Sequence = GUUCCCGCAGCCUAUGGCCCAGGCCGCCUUGGGUAUUUCUGCUCAAGGUAACCACAUCCCUCUUUAAAAAUUCCGCCGAAAAAGAGAAGACGCUUUACCCGACUCUUUGGGCCGUUAUCU; value = 0.242 ratio
Sequence = UCCUCCUGCCUCUGCCUCCUGAGUGCUUCAUUAAAGGCUAUGCCACUACACCUGGGAACAUAGUUUCUAAGAAAGCUUCUUGUCUUUUCAUUUGGCAGGUAUCAUGUUCAUUUGUUGUUU; value = 0.163 ratio
Sequence = UGCUGCAGGAAAAGAGAUCAUAUGGCACGGGCGGACAAAAGAAGAACCAGCUCAUUAUUGUAGUAUUUGUGAGGUGGAGGUUUUUGAUCUGCUUUUUGUCACUAAUGAGAGUAAUUCUCG; value = 0.202 ratio
Sequence = UUAUGUGACCUAAAACUUUUUUAAAUGAAAAAAAAAUGUGGUUUUUUUUUUGGUUUUAAUGGUGUUAUGUGGUCUGUGUAUUAAUUAUUUACUUUUCCGUUGAUACAACAUGAAGGUCUU; value = 0.332 ratio
Sequence = GAUAUUCUCUACGCCCGGCAAAAGAUUGUUGUCAUAGCGAAAGCCUUUGGUCUCCAAGCCAUAGAUCUGGUGUACAUUGACUUUCGAGAUGGAGCUGGGCUGCUUAGACAGUCACGAGAA; value = 0.151 ratio
Sequence = UGCGACGCGCAGUCCACGCAGGAGAUCCAUGAGAAGGUACCACCACGUGGUCGCCUGGGGCUGGCAGAACCGCACGUUGGGGGGAGUUGGAGGGACGGGAGCACGGCAGGCCCGGGCCAC; value = 0.218 ratio
Sequence = GUUGACAGCUUUGAUGACAUGAACCUCUCGGAGUCCCUUCUCCGUGGCAUCUACGCGUAUGGUUUUGAGAAGCCCUCUGCCAUCCAGCAGCGAGCCAUUCUACCUUGUAUCAAGGGUUAU; value = 0.21 ratio

Set 4 — technique: universal PBM; molecule type: double-stranded DNA, one strand shown; matrix: in vitro; tested at: not given; direction: higher = stronger binding; quantity: E-score
Target: Sal-like protein 4, full length isoform B (SALL4, Homo sapiens, UniProt Q9UJQ4-2, residues 1-616)
Notes: 8-mer, flanks averaged, mean of replicates
Sequence = GAGGAACC; value = -0.0723
Sequence = CCACGCGA; value = -0.216
Sequence = CATTGCGC; value = -0.0848
Sequence = AATAACTC; value = 0.261
Sequence = ACGCCTTC; value = -0.0565
Sequence = ACAGTTAA; value = 0.0916
Sequence = ACAGCACG; value = -0.209
Sequence = AGGTCGGC; value = -0.114
Sequence = GCGTATGA; value = 0.0943
Sequence = ACTAATAA; value = 0.379
Sequence = AAAACTTT; value = 0.142
Sequence = AATTGCAA; value = 0.301
Sequence = CGAAGAGA; value = 0.0992
Sequence = GGAGCTTA; value = -0.0688
Sequence = ATGTAGAC; value = 0.154
Sequence = GTCTAACA; value = -0.0161
Sequence = GTTCTTGA; value = 0.0353
Sequence = GTTCTTTA; value = 0.122
Sequence = AAGATACT; value = 0.104
Sequence = AATGCACC; value = -0.0475
Sequence = GCAAAAAC; value = 0.138
Sequence = GCTTCTTA; value = 0.0984
Sequence = AGGTAACA; value = 0.179
Sequence = ATGCTACC; value = 0.0401

Set 5 — technique: RNA Bind-n-Seq; molecule type: RNA; matrix: in vitro; tested at: 365 nM; reference: no-protein control; direction: higher = stronger binding; quantity: RBNS enrichment (R)
Target: RNA binding protein fox-1 homolog 2, RRM domain, GST-SBP tag (RBFOX2, Homo sapiens, UniProt O43251-10, residues 100-194)
Notes: natural RNA segment, single round, ends assumed
Shared flanks, not repeated: GGGAGUUCUACAGUCCGACGAUC … UGGAAUUCUCGGGUGCCAA
Construct (chain): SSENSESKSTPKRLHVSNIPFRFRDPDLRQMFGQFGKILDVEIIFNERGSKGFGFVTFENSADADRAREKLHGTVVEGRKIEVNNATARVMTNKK
Sequence = GUCUCGGGACUUGGGUCCCGGAGUGCCCGUGAAGCGUGUUUUUGCUCCUGAGGUGCAUUUUCUCAUCAUCCUUGCUUUACCACAAUGAGCAAUGAGGUCGGGUUUUAUAU; value = 0.306
Sequence = CCCCAUCCCAGCUUUUAGAGGAUCUGCUCCACUGUCUCCUGGGGCAGUUGUGGGUCACUGUCCCUUCCAGCUGCCCCAGACAGGAAGCAGAGUCACCACGCAGCAGUGUC; value = 0.176
Sequence = UUUGAUCAGCCUGCUAUCACGGUGUUCUGGCUCUCUUAUUUAGCCAGGCGCUUAAGGGACAGAUACAUCACAUCCUAAGUUUGGGAAAGGCCUUUGACCCAUGUCAUCUG; value = 0.309
Sequence = GGACCCAAACCAGCGCCUCACUCUAGGGUAGCCCAGGGCGCAGGUGCCAGGUCUGCCUAGCGUUUACCACUGUUGUUAAGCCACAGCCCUUGGCCACCACAUGGCCAUCC; value = 0.208
Sequence = ACAAAUUCAUUCCCAGCCUAGGCUCUGGGCACAUUUCCUGUUCUUGAAUUCUGCUCCUGAAGAGGGUGAACAAAUGGGGCAUUCAAGUUGUGAGCUCAGAAUUACUUUAA; value = 0.825
Sequence = AGUACAGUUCAAGUGAAUCUGGAUAAUUGUUCAUCUUUGCUUUAGCUUAGAUACCAUGUAGUGGUCUGUGGCUACAGGAAGCUGGUUCUGUCUGCUUCCACAGUCUGCUU; value = 0.232
Sequence = CUCAUCUAUAACAUGCAUUUGUCUUUGUAAUGUCACCACCUUCCCAGCUCUCCCUCUGGCCCUGCCUUCUUCGGGGAACUCCUGGAAAUAUCAGUUACUCAGCCCUGGGC; value = 0.653
Sequence = GCGUGUGCAUUUGUGAACACGUACAGCAUAUCUAUACAAAAUUCUGCUAUAGUGUGAAAAUCAGGGCUAAAAACCUGAAGCCUUUGUUUAAUUAUGCUUUUCCUCUAAAU; value = 0.385
Sequence = UAAAUAAAUACCAUGACUGGCUUUGGGAGAAUCAUGAAAAAUUAAGUCUAUCUUGAAGCUGCCUGUUUGAAGUUUCCCAUGCGUCGCCUUGUGCUUCGGUUUCUAAGGGC; value = 0.728
Sequence = AUUGAAACUGUUCCUAUUUGCCCUGGGACGGUUUCUAUCUAUCAAAGGAAGGUUUUCACCUGUAGAAAGCCCCCUGCCUCCAGCCAAAUAGUCCCAUGCUGACUUUCUAU; value = 0.569
Sequence = UUGAGGAGGGGCAGAAGCAGGGCCGGCAAAGGUUGUACCUUCAUAAGGUGGUAUGGGGGGUUGGGGUCAGGCCCUGAACAUCGUCCUACUUGAGAAUCUGUCAGGGGAAA; value = 2.01
Sequence = UGGCCAGCUUAUGGCAGGAGCAAAGUCAGUCCCCCUUUCAGAGCCUCAGGAAGCUUGGAACACCUCAGUCACAAGCCUGUCAGUUUCUUCCUCUGGGAUGGGAGUCCCGC; value = 0.218

Excerpt of the above (set 1):
Change = A49E; value = -1.19 natural log
Change = L31S; value = -1.5 natural log
Change = E33Q; value = -1.21 natural log
Change = S43I; value = -0.943 natural log
Change = T37G; value = -1.35 natural log
Change = A29Q; value = -1.19 natural log
Change = I28E; value = -1.25 natural log
Change = V56A; value = -1.39 natural log
Change = K36E; value = -1.23 natural log
Change = V35Q; value = -1.51 natural log
Change = T37K; value = -0.967 natural log
Change = K34L; value = -0.951 natural log
Change = I28H; value = -1.38 natural log
Change = E33A; value = -1.12 natural log
